Results of several laboratories.
Each line is one published result; not all experiments were run side by side. ± gives the spread as reported. ≈ marks a conversion by molar mass, not a printed value.

COc1ccc(-n2cc(C(N)=O)c(=O)c3cc(CCc4cnc(C)nc4)ccc32)cc1  unbound fraction (rat, plasma): 0.098
CN(C)c1ccc(C2=N[C@@H](C(=O)NO)CO2)cc1  solubility (aqueous buffer; pH 7.4): 14.1 mg/mL (≈ 56.7 mM)
CCCCNC(=O)NC1CC=C(c2cc3c(Nc4cc5ncsc5cc4F)ncnc3s2)CC1 (stereo not shown)  intrinsic clearance (human liver microsomes; 1 µM): < 12 mL/min/g protein
CCCc1ccc(-c2ccc(C3=N[C@@H](C(=O)NO)CO3)cc2)cc1  logD (octanol/buffer; pH 11): 2.41
CCN(CC)c1ccc2c(-c3ccccc3C(=O)N(C)CCCC(=O)N[C@@H](CC(C)C)C(=O)N[C@@H](CCCNC(=N)N)C(=O)N[C@@H](CCCNC(=N)N)C(=O)N[C@@H](C)C(=O)N[C@@H](CO)C(=O)N[C@@H](CC(C)C)C(=O)NCC(=O)O)c3ccc(=[N+](CC)CC)cc-3oc2c1  molar extinction coefficient (UV/Vis; phosphate buffer 25 mM; 100 µM, pH 7.4, at λmax 560 nm): > 35000 M⁻¹ cm⁻¹
COC(=O)[C@@H]1C(C=Nc2ccccc2)=Cc2cc3c(cc2[C@H]1c1cc(OC)c(OC)c(OC)c1)OCO3  EC50 (Leishmania infantum; iRFP fluorescence; mouse splenocytes infected, amastigote, iRFP, ex vivo splenic explant; 48 h): 19.9 ± 2.1 µM
CCCSc1nc(N[C@@H]2C[C@H]2c2ccc(F)c(F)c2)c2nnn([C@@H]3C[C@H](O)[C@@H](O)[C@H]3O)c2n1  AUC (rat, male, plasma; oral, 60 mg/kg/day ticagrelor, week 52): 102 µM·h
O=C(O)c1cccc(-c2nc(-c3ccccc3F)c3sccn23)c1  CLint (mouse liver microsomes; 1 µM): 61.1 µL/min/mg
Nc1ncc(-c2ccc3ncnc(N4CCc5cc(F)c(Cl)cc54)c3c2)cn1  Cmax (CD1 mouse, plasma; oral, 100 mg/kg): 4730 ng/mL
COc1ccc2c(c1)CN(C(=O)OC(C(F)(F)F)C(F)(F)F)C2  half-life (human liver microsomes; added: NADPH): 11 min
CCCn1c(NCc2cccc(OC)c2O)nc2ccccc21  half-life (mouse, liver microsomes; 1 µM, 37 °C, added: NADPH): 4.3 min
CCN(Cc1cccnc1)c1ccc2c(c1)c(=O)c(C(N)=O)cn2-c1ccc(F)cc1  unbound fraction (rat, plasma): 0.067
CCOc1ccccc1Nc1nnc(SCC(=O)Nc2cc(F)ccc2F)s1  half-life (mouse plasma): > 120 min
Cc1c(-c2ccccc2)nn2c(=O)cc(-c3cccc(-c4nnn[nH]4)c3)[nH]c12  CLint (human liver microsomes; 1 µM): 7.71 µL/min/mg
Cc1cc(NC(=O)c2cccc(NC(=O)C3=CC(C)(C)CCC3=O)c2)ccc1Nc1nccc(-c2cccnc2)n1  compound remaining (rat plasma; 1 µM, 10 min): 97.7%
COc1ccc(CC(=O)OCc2ccc(-n3cccn3)cc2)cc1F  logD (pH 7.4): 3.31
CC(C)n1nnc(-c2cc(O)cc(Nc3ncnn4ccc(CN5CCC(N)CC5)c34)c2)n1  free plasma concentration (from plasma protein binding; mouse, plasma; subcutaneous, 60 mg/kg, 90 min): 60 nM
O=C(NO)C1CSC(c2ccc(F)cc2)=N1 (stereo not shown)  logD (octanol/buffer; pH 11): -0.51
Cc1cc(SCc2sc(-c3cccc(F)c3)nc2C)ccc1OCC(=O)O  CC50 (HEK293T; 18 h): > 100 µM
NC(=O)c1cn(-c2ccc(F)cc2)c2ccc(COc3ccc(Cl)nc3)cc2c1=O  unbound fraction (rat, plasma): 0.033
COc1ccc2c(c1)S(=O)(=O)N(CCCCCc1ccccc1)C(=O)O2  storage stability (solid, open to air): > 6 months
Oc1ccc(-n2cc(-c3ccc4ccccc4n3)nn2)cc1  aqueous solubility (shake-flask; Britton-Robinson buffer; 48 h, pH 6.5, 30 °C): 7.6 µM (≈ 2.19 µg/mL)
CCOC(=O)CC[C@H](NC(=O)c1ccc(N(C)Cc2cnc3nc(N)nc(N)c3n2)cc1)C(=O)OCC  logP: 2.14
CC[C@H](C)[C@H](NC(=O)[C@H](Cc1ccccc1)NC(=O)[C@H](CC(=O)O)NC(=O)[C@H](CCCNC(=N)N)NC(=O)[C@H](Cc1ccccc1)NC(=O)[C@H](Cc1ccccc1)NC(=O)[C@H](CCCCN)NC(=O)[C@H](CO)NC(=O)[C@H](CC(C)C)NC(=O)[C@H](CCCNC(=N)N)NC(=O)[C@H](CCSC)NC(=O)[C@H](C)N)C(=O)N[C@@H](CC(C)C)C(=O)N[C@@H](CCC(N)=O)C(=O)N[C@@H](CCCNC(=N)N)C(=O)N[C@@H](CCCCN)C(=O)N[C@@H](CCCCN)C(=O)O  helicity (circular dichroism; 20% TFE in PBS; 200 µM, pH 7.4, 25 °C): 18.8%
CC(=NN=c1[nH]c2cc(F)c(F)cc2n1C)c1ccc(F)cn1  ALP level (CD-1 IGS mice female, plasma; i.p., 20 mg/kg/day, two weeks; reference: vehicle): no effect
CC(=O)Nc1ccc(-c2nc(C)c(CSc3ccc(OCC(=O)O)c(C)c3)s2)cc1  CC50 (HEK293T; 18 h): > 100 µM
NC(=O)c1cn(-c2ccc(F)cc2)c2ccc(CN3CCSCC3)cc2c1=O  unbound fraction (rat, plasma): 0.205
CC1(CNC(=O)[C@H](CN)NC(=O)c2ccc(C#CC#Cc3ccccc3)cc2)NC(=O)NC1=O (stereo partly shown)  logD (octanol/buffer; pH 11): 1.71
NC1CCN(Cc2ccn3ncnc(Nc4cccc(-c5cnco5)c4)c23)CC1  free plasma concentration (from plasma protein binding; mouse, plasma; intraperitoneal, 30 mg/kg, 90 min): 118 nM
O=C(OC(C(F)(F)F)C(F)(F)F)N1Cc2ccc(Br)cc2C1  plasma concentration (male CD-1 mouse, plasma; intravenous, 2 mg/kg, 15 min, cassette dosing): 114 ± 15 ng/mL
Cc1ncc(CCc2ccc3c(c2)c(=O)c(C(N)=O)cn3-c2ccc(F)cc2)cn1  Kp brain/plasma (rat; iv, 0.2 mg/kg, 15 min, cassette dosing): 0.05
O=C1Nc2cccc(C#CC3(O)CCNCC3)c2/C1=C/c1cc2ccccc2[nH]1  AUC (C57BL/6 mouse, plasma; intraperitoneal, 10 mg/kg): 1200 ng·h/mL
NC(=O)c1cn(-c2ccc(F)cc2)c2ccc(NCc3cccnc3)cc2c1=O  unbound fraction (rat, plasma): 0.137
Cc1n[nH]c(C)c1CCOC(=O)c1cccc2c1oc(=O)n2C  Cmax (BALB/c mouse, plasma; oral, 10 mg/kg): 2640 ng/mL

Repeated from above:
CN(C)c1ccc(C2=N[C@@H](C(=O)NO)CO2)cc1  solubility (aqueous buffer; pH 7.4): 14.1 mg/mL (≈ 56.7 mM)
CCCCNC(=O)NC1CC=C(c2cc3c(Nc4cc5ncsc5cc4F)ncnc3s2)CC1 (stereo not shown)  intrinsic clearance (human liver microsomes; 1 µM): < 12 mL/min/g protein
